Measured values pooled from the literature.
A part holds a random share of what one study measured.

Study 1
Target: UBE2C UBC core domain (UniProt O00762)
Method: yeast two-hybrid
Matrix: yeast
Setting: mostly zero background
Reference: not given
Reading: higher = stronger interaction
B1: ANAPC11 RING domain (UniProt Q9NYG5); chain GICRMAFNGCCPDCKVPGDDCPLVWGQCSHCFHMHCILKWLHAQQVQQHCPMCRQEWKFKE
B2: RNF122 RING domain (UniProt Q9H9V4); chain AKKLQLYGQTCAVCLEDFKGKDELGVLPCQHAFHRKCLVKWLEVRCVCPMCNKPIASPSEAT
B3: TRIM26 RING domain (UniProt Q12899); chain PLRSLEEEVTCSICLDYLRDPVTIDCGHVFCRSCTTDVRPISGSRPVCPLCKKPFKKENIRP
B4: TRIM37 RING domain (UniProt O94972); chain SVESIAEVFRCFICMEKLRDARLCPHCSKLCCFSCIRRWLTEQRAQCPHCRAPLQLRELVN
B5: MYCBP2 RING domain (UniProt O75592); chain TSLKQDADDMCMICFTEALSAAPAIQLDCSHIFHLQCCRRVLENRWLGPRITFGFISCPICKNKINHIVLKD
B6: TRIM54 RING domain (UniProt Q9BYV2); chain SMDNLEKQLICPICLEMFSKPVVILPCQHNLCRKCANDVFQASNPLWQSRGSTTVSSGGRFRCPSCRHEVVLDRHGV
Construct (chain): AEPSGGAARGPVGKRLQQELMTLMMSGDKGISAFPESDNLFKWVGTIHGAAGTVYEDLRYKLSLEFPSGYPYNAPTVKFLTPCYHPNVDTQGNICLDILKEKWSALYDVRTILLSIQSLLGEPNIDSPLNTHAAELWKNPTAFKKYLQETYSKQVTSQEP
Sequence | lacZ reporter activity
LGTKLEAKYLCSACRNVLRRPFQAQCGHRYCSFCLASILSSGPQNCAACVHEGIYEEGIS (TRAF2 RING domain (UniProt Q12933)) | 0
B1 (ANAPC11 RING domain) | 0
B2 (RNF122 RING domain) | 0
B3 (TRIM26 RING domain) | 0
QVQSRTKIEECVVCSDKKAAVLFQPCGHMCACENCANLMKKCVQCRAVVERRVPFI (MIB1 RING domain (UniProt Q86YT6)) | 0
B4 (TRIM37 RING domain) | 0
B5 (MYCBP2 RING domain) | 0
B6 (TRIM54 RING domain) | 0
AEADPLGRFTCPVCLEVYEKPVQVPCGHVFCSACLQECLKPKKPVCGVCRSALAPGVRAV (RNF114 RING domain (UniProt Q9Y508)) | 0

Study 2
Target: Interferon regulatory factor 5, full length, phosphomimetic (IRF5, Homo sapiens, UniProt Q13568-2, residues 1-514, K96S/S451D/S453D/S456D/S462D)
Method: protein-binding microarray
Molecule type: double-stranded DNA, one strand shown
Matrix: in vitro
Tested at: 250 nM
Setting: 60-bp whole probe
With: salmon DNA 0.4 mg/ml
Reference: random background probes
Reading: higher = stronger binding
Constant ends, left off below: GCCTAGCAC … GTCTTGATTCGCTTGACGCTGCTG
Strand | log fluorescence [z-score]
TTGCATCTGGGTATTTTTCTGTGCTAG | 0.732
TCATAGGTTTCACTTTCCACTGTGCTA | 4.97
GACGGTTTCGGACTGGGGATGTGCTAG | 3.86
TTCGGTATCGGGTTTCGGTTAGTGCTA | 8.89
TACGGTATCGGGACTGGGGACGTGCTA | 1.02
TTAGAACTGGCGTATCGATTAGTGCTA | 1.94
GACGATATTAGTTTCGAGACGTGCTAG | 7.01
ATGATTGGTTGAACATGAACGTGCTAG | 0.327
TTAGGTCTCCTTTTCCTTTGGTGCTAG | 0.347
ATCTCACTCTGTCCCTCTGTGTGCTAG | 0.284
GACGGTTTCCTGTCCCTGACGTGCTAG | 0.206
TTAGGTACCGACACTGGGTTAGTGCTA | -0.0381
TTAGAACTGGGGTTTCGATAAGTGCTA | 4.51
GACGGACTAGACACTGGGGACGTGCTA | -0.634
CTTGCTTCCCAATTCTCTTTGTGCTAG | 0.449
TTAGGACTGCTTCTCCTGTAGTGCTAG | -0.374
TTAGATATCAGTTTCGATTAGTGCTAG | 10
TACTCTACAGGGTTTCACTTTGTGCTA | 1.32
GACGGTTTCCTTCTCCTCACGTGCTAG | 0.849

Study 3
Target: Fragile X messenger ribonucleoprotein 1, C-terminal low-complexity region (Fmr1, Mus musculus, UniProt P35922)
Method: RNA Bind-n-Seq
Molecule type: RNA
Matrix: in vitro
Tested at: 200 nM
Setting: whole 134-nt RNA, ends assumed
With: 150 mM LiCl
Reference: input library
Reading: higher = stronger binding
Library: 7-deaza-guanosine replaces G
Constant ends, left off below: GGGAGUUCUACAGUCCGACGAUC … UGGAAUUCUCGGGUGUCAAGG
Strand | log2 enrichment
AAGUCCUGUGCUACACAUCGUAUGUACCGAAUCGGCCCCGGCCCCGGGGCCCCGGGGAAAGUAUUAUGUUACGCCGUUCGGAUCUGCACU | -2.68
AGUCCUGUGCUACACAUCGUAUGUACCGAAUCGGCCCCCGGGGCCCCCGGCCCCCGGAAAGUAUUAUGUUACGCCGUUCGGAUCUGCACU | -1.92
UGGCCCUGAUGGCAUGCGGGGAGGAAGAGGUGGCCUCAUGGAUCGUGGUGGUCCCGGUGGAAUGUUCAGAGGUGGCCGUGGUGGAGACAG | -0.674
ACCAUGCAGGUGGGCAUCUUUGGGAAGUGGGGCAGGGGGGGGAUAGGGAGGGGGGUAACACUUUGGGAACAGGUGGUCCCAGGUCGUUUC | 1.43
UAAUUUUAGAGGAGGAUCUGAUGGAUAUGGCAGUGGACGUGGAUUUGGGGAUGGCUAUAAUGGGUAUGGAGGAGGACCUGGAGGUGGCAA | 0.248
CCUGUGCUACACAUCGUAUGUACCGAAUCGGUUUUUUUGGGGUUUUUUUGGGUUUUUUUGGAAAGUAUUAUGUUACGCCGUUCGGAUCUG | 0.891
CUCAAGUCCUGUGCUACACAUCGUAUGUACCGAAUCGGUUUGGAGGAAAAAGGAAAGUAUUAUGUUACGCCGUUCGGAUCUGCACUUCCA | -0.333

Study 4
Target: Sal-like protein 4, full length isoform B (SALL4, Homo sapiens, UniProt Q9UJQ4-2, residues 1-616)
Method: universal PBM
Molecule type: double-stranded DNA, one strand shown
Matrix: in vitro
Tested at: not given
Setting: 8-mer, flanks averaged, mean of replicates
Reading: higher = stronger binding
Strand | E-score
GCCACAAA | 0.0486
AGCAGTCA | -0.236
AATATGCT | 0.342
CCGCGACC | -0.284
GCGACAGC | -0.18
CAGATGTC | -0.0443
CCCCACGA | -0.195
ACGCCTTA | -0.0206
GGGTACTA | 0.0761
TAGCACGA | -0.0565
ATCTCGAG | 0.0172
CTGGTGCC | -0.273
GCGTCGTA | 0.0586
CCCTGCAG | -0.21
CTTCGCTC | -0.181
ATCCTTAA | 0.0334
TAGTAGGA | -0.0499

For quick reference, copied from above (study 2):
Strand | log fluorescence [z-score]
TTAGGACTGCTTCTCCTGTAGTGCTAG | -0.374
GACGGTTTCGGACTGGGGATGTGCTAG | 3.86
GACGGTTTCCTTCTCCTCACGTGCTAG | 0.849
ATCTCACTCTGTCCCTCTGTGTGCTAG | 0.284
